Measured values from different studies.
Lines come from different studies, so protocols differ. ± gives the spread as reported.
TDP1: Tyrosyl-DNA phosphodiesterase 1 (TDP1, Homo sapiens, UniProt Q9NUW8)
Sequence of UniProt Q9NUW8 (whole entry, looked up): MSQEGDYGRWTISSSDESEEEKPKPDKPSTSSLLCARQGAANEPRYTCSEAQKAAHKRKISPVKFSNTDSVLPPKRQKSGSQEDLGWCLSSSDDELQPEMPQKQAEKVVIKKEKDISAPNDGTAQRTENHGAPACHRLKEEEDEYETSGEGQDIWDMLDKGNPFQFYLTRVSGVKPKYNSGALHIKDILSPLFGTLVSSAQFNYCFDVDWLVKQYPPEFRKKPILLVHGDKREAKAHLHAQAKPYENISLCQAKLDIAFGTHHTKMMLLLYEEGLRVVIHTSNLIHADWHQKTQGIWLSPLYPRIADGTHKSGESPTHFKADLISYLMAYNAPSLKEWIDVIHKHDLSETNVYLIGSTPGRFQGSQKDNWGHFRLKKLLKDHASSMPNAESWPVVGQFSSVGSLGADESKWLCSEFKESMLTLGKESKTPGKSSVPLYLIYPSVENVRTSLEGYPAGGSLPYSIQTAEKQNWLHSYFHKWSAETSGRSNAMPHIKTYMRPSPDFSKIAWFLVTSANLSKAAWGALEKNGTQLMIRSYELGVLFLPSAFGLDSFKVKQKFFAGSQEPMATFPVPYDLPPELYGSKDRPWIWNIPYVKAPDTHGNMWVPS

Compound	target or system	test	system	conditions	measurement	result
COc1cccc(OC)c1-c1cc(C(=O)NC2(C(=O)O)C3CC4CC(C3)CC2C4)nn1-c1ccc(C(=O)NCCNC(=O)[C@H](CCCCNC(=O)[C@H](CC(C)C)NC(=O)C2OC2C(=O)O)NC(=O)CN2CCN(CC(=O)[O-])CCN(CC(=O)[O-])CCN(CC(=O)[O-])CC2)cc1C(C)C.[177Lu+3] (mixture of isomers)	–	–	mouse, HT-29 xenograft, muscle	24 h post injection	tissue uptake	0.12 %ID/g
CC(C)Cc1ccc(C(C)C(=O)N[C@@H](CCCCNC(=O)CCOCCOCCOCCOCCOCCOCCNC(=O)CN2CCN(CC(=O)[O-])CCN(CC(=O)[O-])CCN(CC(=O)[O-])CC2)C(=O)Nc2cccc3c(C(=O)NCC(=O)N4CC(F)(F)C[C@H]4C#N)ccnc23)cc1.[177Lu+3] (stereo partly shown)	–	–	mouse, U-87 MG tumour xenograft, salivary gland	48 h	tissue uptake	0.95 ± 0.23 %ID/g
O=C(NCC1OC2CCC=CCCC2O1)c1ccc([18F])nc1 (stereo not shown)	–	–	healthy female BALB/c nude mice, brain	intravenous, 7.4 MBq per mouse, 120 min	tissue uptake	0.2 ± 0.01 %ID/g
[123I]c1ccc2nc(-c3ccc(-n4ccnn4)nc3)cn2c1	–	–	male Wistar rat, small intestine	intravenous, 4 MBq, 5 min	tissue uptake	2.84 ± 0.292 %ID/g
O=C(O)CCCOc1ccc([18F])cc1-c1cc(-c2ccccc2C(F)(F)F)n(-c2ccccc2)n1	–	–	mouse, muscle	intravenous, dose not given, 5 min	tissue uptake	2.25 ± 0.2 %ID/g
COc1ccc(Nc2nc(Nc3ccc(OCCOCC[18F])cc3)ncc2Br)cc1	–	–	ICR mice, S180 tumour-bearing, kidney	intravenous, 370 kBq, 30 min	tissue uptake	5.95 ± 0.11 %ID/g
COc1cccc(OC)c1-c1cc(C(=O)NC2(C(=O)O)C3CC4CC(C3)CC2C4)nn1-c1ccc(C(=O)N(C)CCOCCN(C)C(=O)[C@H](CCCCNC(=O)[C@H](CC(C)C)NC(=O)C2OC2C(=O)O)NC(=O)CN2CCN(CC(=O)[O-])CCN(CC(=O)[O-])CCN(CC(=O)[O-])CC2)cc1C(C)C.[177Lu+3] (mixture of isomers)	–	–	mouse HT-29 xenograft, large intestine	168 h post injection, biodistribution	tissue uptake	0.06 %ID/g
CCCC[C@H](NC(=O)COCCOCCNC(=O)CN1CCN(CC(=O)O)CCN(CC(=O)O)CC1)C(=O)N[C@H]1CC(=O)NCCCC[C@@H](C(N)=O)NC(=O)[C@H](Cc2c[nH]c3ccccc23)NC(=O)[C@H](CCCNC(=N)N)NC(=O)[C@@H](Cc2ccccc2)NC(=O)[C@H](Cc2c[nH]cn2)NC1=O [fluorine-18 labelled]	–	–	C57 mice, B16/F10 melanoma, intestines	intravenous, 0.37 MBq, 0.5 h	tissue uptake	1.23 ± 0.32 %ID
COc1cc([N+](=O)[O-])ccc1CC=NOCc1ccc2nc(-c3ccccc3)c(Nc3ccc(C(=O)O)cc3)n2c1 (mixture of isomers)	TDP1	enzyme activity, inhibitor	–	100 µM, unpurified compound	inhibition	-2.6%
COc1cccc(OC)c1-c1cc(C(=O)NC2(C(=O)O)C3CC4CC(C3)CC2C4)nn1-c1ccc(C(=O)N(C)CCCN(C)C(=O)[C@H](CCCCNC(=O)[C@H](CC(C)C)NC(=O)C2OC2C(=O)O)NC(=O)CN2CCN(CC(=O)[O-])CCN(CC(=O)[O-])CCN(CC(=O)[O-])CC2)cc1C(C)C.[177Lu+3] (mixture of isomers)	–	–	mouse, HT-29 xenograft, kidney	168 h post injection	tissue uptake	1.17 %ID/g
CCCC[C@H](NC(=O)CNC(=O)CNC(=O)[C@H](CCCCNC(=O)[C@H](CC(=O)O)NC(=O)C(C)c1ccc(CC(C)C)cc1)NC(=O)CN1CCN(CC(=O)O)CCN(CC(=O)O)CCN(CC(=O)O)CC1)C(=O)N[C@H]1CC(=O)NCCCC[C@@H](C(N)=O)NC(=O)[C@H](Cc2c[nH]c3ccccc23)NC(=O)[C@H](CCCNC(=N)N)NC(=O)[C@@H](Cc2ccccc2)NC(=O)[C@H](Cc2c[nH]cn2)NC1=O (stereo partly shown) [lutetium-177 labelled]	–	–	C57 mouse, skin	intravenous, 2 h, with: 10 µg NDP-MSH co-injection	tissue uptake	0.85 ± 0.04 %ID/g
COc1cccc(OC)c1-c1cc(C(=O)NC2(C(=O)O)C3CC4CC(C3)CC2C4)nn1-c1ccc(C(=O)N(C)CCOCCOCCN(C)C(=O)[C@H](CCCCNC(=O)[C@H](CC(C)C)NC(=O)C2OC2C(=O)O)NC(=O)CN2CCN(CC(=O)[O-])CCN(CC(=O)[O-])CCN(CC(=O)[O-])CC2)cc1C(C)C.[177Lu+3] (mixture of isomers)	–	–	mouse, HT-29 xenograft, kidney	4 h post injection	tissue uptake	11.9 %ID/g
[11CH3]N1CCC(NC(=O)c2cc(-c3c(O)cc(O)cc3Oc3ccc([N+](=O)[O-])cc3)on2)CC1	–	–	Wistar rat, female, healthy, urine	intravenous, 60 min	tissue uptake	11.3 ± 1.4 %ID
N#C[C@@H]1CC(F)(F)CN1C(=O)CNC(=O)c1ccnc2c(NC(=O)[C@H](CCCCNC(=O)CCOCCOCCOCCOCCOCCOCCNC(=O)CN3CCN(CC(=O)[O-])CCN(CC(=O)[O-])CCN(CC(=O)[O-])CC3)NC(=O)CCCc3ccc(I)cc3)cccc12.[177Lu+3]	–	–	mouse, U-87 MG tumour xenograft, lung	72 h	tissue uptake	0.27 ± 0.43 %ID/g
Cc1cc(C)n(CCN(CCN)CCCCCCNC(=O)[C@@H](N)Cc2c[nH]cn2)n1.[99Tc+].[C-]#[O+].[C-]#[O+].[C-]#[O+]	–	–	BALB/c nude mice, A549 xenograft, bone	intravenous, 4 h	tissue uptake	0.17 ± 0.01 %IA/g
COc1cccc(OC)c1-c1cc(C(=O)NC2(C(=O)O)C3CC4CC(C3)CC2C4)nn1-c1ccc(C(=O)N(C)CCCN(C)CCCN(C)C(=O)[C@H](CCCCNC(=O)[C@H](CC(C)C)NC(=O)C2OC2C(=O)O)NC(=O)CN2CCN(CC(=O)[O-])CCN(CC(=O)[O-])CCN(CC(=O)[O-])CC2)cc1C(C)C.[177Lu+3] (mixture of isomers)	–	–	mouse HT-29 xenograft, large intestine	168 h post injection, biodistribution	tissue uptake	0.136 %ID/g
O=C1NC(=O)/C(=C/c2ccc(C=NOCc3ccc4nc(-c5ccccc5)c(Nc5ccc(C(=O)O)cc5)n4c3)cc2)N1	TDP1	enzyme activity, inhibitor	–	100 µM, unpurified compound	inhibition	103%
N#C[C@@H]1CC(F)(F)CN1C(=O)CNC(=O)c1ccnc2c(NC(=O)[C@@H](N)CCCCNC(=O)CCOCCOCCOCCOCCOCCOCCNC(=O)CN3CCN(CC(=O)[O-])CCN(CC(=O)[O-])CCN(CC(=O)[O-])CC3)cccc12.[177Lu+3]	–	–	mouse, U-87 MG tumour xenograft, salivary gland	1 h	tissue uptake	0.85 ± 0.47 %ID/g
COc1ccc(Nc2nc(Nc3ccc(OCCOCCOCC[18F])cc3)ncc2Br)cc1	–	–	ICR mice, S180 tumour-bearing, kidney	intravenous, 370 kBq, 60 min	tissue uptake	5.89 ± 0.48 %ID/g

Excerpt of the above:
Compound	target or system	test	system	conditions	measurement	result
O=C1NC(=O)/C(=C/c2ccc(C=NOCc3ccc4nc(-c5ccccc5)c(Nc5ccc(C(=O)O)cc5)n4c3)cc2)N1	TDP1	enzyme activity, inhibitor	–	100 µM, unpurified compound	inhibition	103%
CCCC[C@H](NC(=O)CNC(=O)CNC(=O)[C@H](CCCCNC(=O)[C@H](CC(=O)O)NC(=O)C(C)c1ccc(CC(C)C)cc1)NC(=O)CN1CCN(CC(=O)O)CCN(CC(=O)O)CCN(CC(=O)O)CC1)C(=O)N[C@H]1CC(=O)NCCCC[C@@H](C(N)=O)NC(=O)[C@H](Cc2c[nH]c3ccccc23)NC(=O)[C@H](CCCNC(=N)N)NC(=O)[C@@H](Cc2ccccc2)NC(=O)[C@H](Cc2c[nH]cn2)NC1=O (stereo partly shown) [lutetium-177 labelled]	–	–	C57 mouse, skin	intravenous, 2 h, with: 10 µg NDP-MSH co-injection	tissue uptake	0.85 ± 0.04 %ID/g
O=C(O)CCCOc1ccc([18F])cc1-c1cc(-c2ccccc2C(F)(F)F)n(-c2ccccc2)n1	–	–	mouse, muscle	intravenous, dose not given, 5 min	tissue uptake	2.25 ± 0.2 %ID/g
